Assay results from different studies.
Protocols differ between the studies behind these lines. “And” joins repeats or separate records; there may be more than shown. ± gives the spread as reported.
APP amyloid-beta peptide: Amyloid-beta precursor protein, amyloid-beta peptide (APP, Homo sapiens, UniProt P05067)
ESR1: Estrogen receptor (ESR1, Homo sapiens, UniProt P03372)
Moesin with CD44: Moesin, with CD44 (Homo sapiens, UniProt P26038)

By UniProt entry, the sequences of proteins in these tests, tags left out. Residues count along the entry.
UniProt P05067, whole entry, looked up: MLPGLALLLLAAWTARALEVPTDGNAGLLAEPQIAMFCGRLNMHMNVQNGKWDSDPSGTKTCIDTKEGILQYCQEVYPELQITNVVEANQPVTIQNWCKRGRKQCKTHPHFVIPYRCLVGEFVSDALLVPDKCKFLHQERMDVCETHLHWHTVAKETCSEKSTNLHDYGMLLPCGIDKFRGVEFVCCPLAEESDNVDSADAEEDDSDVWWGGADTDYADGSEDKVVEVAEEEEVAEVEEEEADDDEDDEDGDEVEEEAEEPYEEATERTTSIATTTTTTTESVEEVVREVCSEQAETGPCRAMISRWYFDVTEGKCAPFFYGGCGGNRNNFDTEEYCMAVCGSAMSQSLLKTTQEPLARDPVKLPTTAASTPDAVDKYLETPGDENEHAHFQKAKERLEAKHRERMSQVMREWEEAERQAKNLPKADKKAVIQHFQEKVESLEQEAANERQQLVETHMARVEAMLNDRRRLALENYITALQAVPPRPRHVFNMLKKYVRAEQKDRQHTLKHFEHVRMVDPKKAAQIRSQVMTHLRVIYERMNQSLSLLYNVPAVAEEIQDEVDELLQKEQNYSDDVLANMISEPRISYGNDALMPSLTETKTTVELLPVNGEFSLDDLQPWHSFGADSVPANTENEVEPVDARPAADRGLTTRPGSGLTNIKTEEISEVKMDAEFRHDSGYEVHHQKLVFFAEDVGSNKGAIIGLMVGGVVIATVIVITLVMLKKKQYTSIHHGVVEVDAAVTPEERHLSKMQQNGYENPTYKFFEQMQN
UniProt P05067, 672-713 limits assumed: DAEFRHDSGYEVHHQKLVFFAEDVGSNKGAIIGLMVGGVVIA
UniProt P03372, whole entry: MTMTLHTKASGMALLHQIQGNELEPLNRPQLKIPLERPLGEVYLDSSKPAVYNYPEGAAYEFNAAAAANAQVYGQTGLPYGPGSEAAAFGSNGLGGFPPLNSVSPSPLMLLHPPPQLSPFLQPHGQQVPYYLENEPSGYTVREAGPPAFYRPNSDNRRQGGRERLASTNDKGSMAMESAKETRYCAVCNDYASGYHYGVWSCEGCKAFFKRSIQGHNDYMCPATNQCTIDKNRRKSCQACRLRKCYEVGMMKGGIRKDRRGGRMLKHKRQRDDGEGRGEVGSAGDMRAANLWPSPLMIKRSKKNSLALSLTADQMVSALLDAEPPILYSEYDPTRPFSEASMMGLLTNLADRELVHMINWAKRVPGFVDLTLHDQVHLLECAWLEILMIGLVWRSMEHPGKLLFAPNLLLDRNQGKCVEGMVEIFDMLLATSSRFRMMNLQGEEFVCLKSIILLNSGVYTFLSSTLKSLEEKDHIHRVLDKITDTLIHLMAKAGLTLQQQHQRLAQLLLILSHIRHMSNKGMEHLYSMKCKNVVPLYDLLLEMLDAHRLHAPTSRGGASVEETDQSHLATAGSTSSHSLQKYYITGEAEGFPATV
UniProt P26038, whole entry, looked up: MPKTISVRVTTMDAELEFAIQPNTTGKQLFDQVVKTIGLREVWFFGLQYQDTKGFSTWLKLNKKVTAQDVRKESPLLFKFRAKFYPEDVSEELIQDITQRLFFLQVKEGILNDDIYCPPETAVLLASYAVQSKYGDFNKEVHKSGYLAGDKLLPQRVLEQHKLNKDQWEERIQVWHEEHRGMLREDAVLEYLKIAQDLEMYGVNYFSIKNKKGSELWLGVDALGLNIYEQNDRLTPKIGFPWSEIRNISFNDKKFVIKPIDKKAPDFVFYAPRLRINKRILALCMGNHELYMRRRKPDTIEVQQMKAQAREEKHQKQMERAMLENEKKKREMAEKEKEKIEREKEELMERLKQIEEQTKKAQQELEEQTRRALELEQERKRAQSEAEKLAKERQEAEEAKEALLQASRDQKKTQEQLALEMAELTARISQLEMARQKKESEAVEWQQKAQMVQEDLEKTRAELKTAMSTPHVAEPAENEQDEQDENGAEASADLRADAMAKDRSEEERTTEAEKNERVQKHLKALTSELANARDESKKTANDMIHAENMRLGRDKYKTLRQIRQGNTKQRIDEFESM
UniProt Q9BV23, whole entry: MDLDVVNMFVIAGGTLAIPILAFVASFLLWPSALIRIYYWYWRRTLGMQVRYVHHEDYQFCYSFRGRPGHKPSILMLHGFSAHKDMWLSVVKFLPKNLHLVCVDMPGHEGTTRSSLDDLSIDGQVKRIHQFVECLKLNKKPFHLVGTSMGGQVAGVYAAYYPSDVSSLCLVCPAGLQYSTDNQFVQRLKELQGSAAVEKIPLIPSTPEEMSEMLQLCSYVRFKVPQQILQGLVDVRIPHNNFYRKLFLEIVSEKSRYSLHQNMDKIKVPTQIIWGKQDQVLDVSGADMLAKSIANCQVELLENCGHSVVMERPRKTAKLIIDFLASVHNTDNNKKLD
UniProt P14902, whole entry: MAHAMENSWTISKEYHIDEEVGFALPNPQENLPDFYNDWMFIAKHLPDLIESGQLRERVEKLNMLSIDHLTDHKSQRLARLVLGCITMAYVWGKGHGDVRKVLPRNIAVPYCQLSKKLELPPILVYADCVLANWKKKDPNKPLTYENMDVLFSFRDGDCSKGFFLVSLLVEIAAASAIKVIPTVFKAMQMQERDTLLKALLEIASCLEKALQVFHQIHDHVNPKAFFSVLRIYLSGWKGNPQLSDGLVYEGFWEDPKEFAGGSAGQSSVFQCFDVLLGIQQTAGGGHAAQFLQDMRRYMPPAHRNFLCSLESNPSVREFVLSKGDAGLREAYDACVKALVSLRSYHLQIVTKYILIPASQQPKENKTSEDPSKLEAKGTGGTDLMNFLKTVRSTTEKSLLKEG
UniProt P08631, whole entry: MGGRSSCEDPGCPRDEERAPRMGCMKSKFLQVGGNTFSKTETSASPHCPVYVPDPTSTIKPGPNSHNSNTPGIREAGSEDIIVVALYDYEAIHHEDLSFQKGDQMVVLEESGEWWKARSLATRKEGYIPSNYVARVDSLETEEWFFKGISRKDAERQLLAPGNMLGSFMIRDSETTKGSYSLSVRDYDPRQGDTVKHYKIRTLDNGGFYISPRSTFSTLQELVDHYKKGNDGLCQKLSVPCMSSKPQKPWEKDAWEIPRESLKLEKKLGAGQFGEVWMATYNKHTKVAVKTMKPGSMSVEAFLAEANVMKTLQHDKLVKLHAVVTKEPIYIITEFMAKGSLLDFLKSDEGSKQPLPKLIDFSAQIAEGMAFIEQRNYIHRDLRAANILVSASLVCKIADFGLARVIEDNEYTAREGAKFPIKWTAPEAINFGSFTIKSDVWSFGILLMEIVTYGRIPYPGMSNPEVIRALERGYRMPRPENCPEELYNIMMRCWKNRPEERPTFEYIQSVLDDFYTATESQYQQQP
UniProt O08808, 748-1175 limits assumed: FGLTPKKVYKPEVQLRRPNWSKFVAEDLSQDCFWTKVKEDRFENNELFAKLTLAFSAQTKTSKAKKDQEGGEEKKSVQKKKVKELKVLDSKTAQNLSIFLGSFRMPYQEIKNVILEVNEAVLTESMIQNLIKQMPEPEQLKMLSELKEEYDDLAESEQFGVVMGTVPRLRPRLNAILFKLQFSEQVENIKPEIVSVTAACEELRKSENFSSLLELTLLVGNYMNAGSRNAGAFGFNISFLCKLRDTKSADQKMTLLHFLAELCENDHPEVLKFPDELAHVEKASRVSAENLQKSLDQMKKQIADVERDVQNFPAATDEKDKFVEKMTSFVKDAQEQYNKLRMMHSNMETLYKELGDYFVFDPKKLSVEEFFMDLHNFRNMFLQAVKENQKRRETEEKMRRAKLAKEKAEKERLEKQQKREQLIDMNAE
UniProt A0A381MCS3, 1-451: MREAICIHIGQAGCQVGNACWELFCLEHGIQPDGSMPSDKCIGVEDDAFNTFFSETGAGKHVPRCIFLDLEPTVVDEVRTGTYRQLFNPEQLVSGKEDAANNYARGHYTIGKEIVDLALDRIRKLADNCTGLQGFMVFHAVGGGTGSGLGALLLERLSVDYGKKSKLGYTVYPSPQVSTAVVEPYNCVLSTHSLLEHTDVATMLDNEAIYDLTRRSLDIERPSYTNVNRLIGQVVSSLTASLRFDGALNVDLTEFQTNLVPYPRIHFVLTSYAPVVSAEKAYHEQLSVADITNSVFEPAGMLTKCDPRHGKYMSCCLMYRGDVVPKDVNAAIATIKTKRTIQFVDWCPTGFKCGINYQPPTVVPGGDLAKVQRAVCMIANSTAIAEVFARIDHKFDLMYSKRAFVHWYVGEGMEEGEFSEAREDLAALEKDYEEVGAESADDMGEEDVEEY
UniProt Q13304, whole entry: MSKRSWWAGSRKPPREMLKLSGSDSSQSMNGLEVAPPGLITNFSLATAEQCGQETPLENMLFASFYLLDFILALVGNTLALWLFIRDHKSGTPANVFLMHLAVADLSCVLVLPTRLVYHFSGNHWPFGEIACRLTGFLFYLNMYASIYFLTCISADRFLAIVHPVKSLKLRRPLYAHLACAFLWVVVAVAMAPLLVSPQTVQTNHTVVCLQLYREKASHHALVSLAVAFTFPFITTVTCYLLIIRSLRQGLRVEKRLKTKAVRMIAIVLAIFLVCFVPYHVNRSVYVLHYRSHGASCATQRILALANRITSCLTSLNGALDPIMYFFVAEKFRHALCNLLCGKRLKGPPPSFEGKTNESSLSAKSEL
UniProt O15455, whole entry, looked up: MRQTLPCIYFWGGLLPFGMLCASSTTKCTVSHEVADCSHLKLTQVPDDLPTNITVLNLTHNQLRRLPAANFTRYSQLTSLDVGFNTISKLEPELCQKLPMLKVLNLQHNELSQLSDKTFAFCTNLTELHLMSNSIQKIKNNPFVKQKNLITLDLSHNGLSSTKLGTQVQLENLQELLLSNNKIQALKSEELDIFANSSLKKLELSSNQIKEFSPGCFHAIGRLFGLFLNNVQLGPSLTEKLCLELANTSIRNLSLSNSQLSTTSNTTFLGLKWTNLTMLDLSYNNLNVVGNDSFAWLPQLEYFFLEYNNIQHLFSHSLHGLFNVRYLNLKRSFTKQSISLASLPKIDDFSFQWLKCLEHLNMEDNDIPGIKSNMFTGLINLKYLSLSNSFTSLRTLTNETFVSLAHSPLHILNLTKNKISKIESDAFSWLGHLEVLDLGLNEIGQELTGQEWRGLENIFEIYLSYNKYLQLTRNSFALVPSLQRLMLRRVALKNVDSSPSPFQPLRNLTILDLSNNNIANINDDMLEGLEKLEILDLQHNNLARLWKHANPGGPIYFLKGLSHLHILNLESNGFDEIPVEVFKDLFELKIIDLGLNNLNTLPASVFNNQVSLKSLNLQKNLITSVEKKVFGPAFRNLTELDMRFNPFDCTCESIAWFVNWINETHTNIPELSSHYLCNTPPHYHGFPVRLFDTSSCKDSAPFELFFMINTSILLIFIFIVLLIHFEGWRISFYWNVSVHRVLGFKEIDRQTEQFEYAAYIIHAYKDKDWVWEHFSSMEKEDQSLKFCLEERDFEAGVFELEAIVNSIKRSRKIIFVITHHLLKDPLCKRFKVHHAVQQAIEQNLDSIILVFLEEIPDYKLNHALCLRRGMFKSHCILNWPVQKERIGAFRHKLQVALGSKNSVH
UniProt Q96RJ0, whole entry: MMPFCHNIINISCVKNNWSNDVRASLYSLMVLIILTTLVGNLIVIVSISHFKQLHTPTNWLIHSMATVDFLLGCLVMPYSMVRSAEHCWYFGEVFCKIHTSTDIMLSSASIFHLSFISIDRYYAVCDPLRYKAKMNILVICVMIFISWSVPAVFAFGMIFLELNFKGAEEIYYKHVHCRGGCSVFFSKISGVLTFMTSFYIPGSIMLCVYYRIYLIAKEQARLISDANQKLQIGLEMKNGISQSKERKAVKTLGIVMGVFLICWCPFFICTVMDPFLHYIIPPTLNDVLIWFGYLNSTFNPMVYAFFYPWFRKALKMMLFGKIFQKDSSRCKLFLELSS
UniProt P11362, 478-767 limits assumed: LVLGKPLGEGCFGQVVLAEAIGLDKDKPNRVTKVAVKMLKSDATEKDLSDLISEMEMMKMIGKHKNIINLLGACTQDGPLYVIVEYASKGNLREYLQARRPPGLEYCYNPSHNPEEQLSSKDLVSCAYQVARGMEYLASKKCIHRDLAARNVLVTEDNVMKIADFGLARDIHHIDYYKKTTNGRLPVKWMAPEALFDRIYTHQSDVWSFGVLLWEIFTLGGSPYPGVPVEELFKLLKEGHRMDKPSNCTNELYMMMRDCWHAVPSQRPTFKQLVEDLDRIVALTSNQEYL
UniProt P08253, 110-660 limits assumed: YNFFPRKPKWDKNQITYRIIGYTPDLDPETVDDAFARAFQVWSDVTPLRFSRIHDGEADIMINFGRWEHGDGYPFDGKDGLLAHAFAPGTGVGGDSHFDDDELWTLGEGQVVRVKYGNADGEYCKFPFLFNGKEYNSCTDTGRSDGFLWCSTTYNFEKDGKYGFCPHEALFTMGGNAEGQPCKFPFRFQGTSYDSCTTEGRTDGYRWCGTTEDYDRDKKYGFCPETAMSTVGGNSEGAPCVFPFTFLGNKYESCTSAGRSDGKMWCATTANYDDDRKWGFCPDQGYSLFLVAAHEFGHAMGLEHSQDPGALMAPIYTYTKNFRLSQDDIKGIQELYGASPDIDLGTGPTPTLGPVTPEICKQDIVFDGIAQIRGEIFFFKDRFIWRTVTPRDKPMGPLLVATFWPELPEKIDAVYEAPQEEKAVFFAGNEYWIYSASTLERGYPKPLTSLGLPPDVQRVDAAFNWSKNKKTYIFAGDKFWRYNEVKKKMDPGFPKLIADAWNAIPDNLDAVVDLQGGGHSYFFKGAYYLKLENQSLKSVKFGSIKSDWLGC

SMILES	target	test	test system	setting	IC50
N#Cc1ccc2[nH]cc(/C=C/c3c[nH]c4ccccc34)c2c1	APP amyloid-beta peptide	Aβ42 oligomerisation, ELISA			4600 nM
Cc1ccc(SCC(=O)Nc2ccc3nc(SCC(=O)NC4CC4)sc3c2)cc1	ESR1	reporter gene, antagonist	HEC-1 transfected ERα luciferase reporter		20000 to 50000 nM
COC(=O)CC(C(=O)/C=C/c1ccc(O)c(OC(F)(F)F)c1)C(=O)/C=C/c1ccc(O)c(OC(F)(F)F)c1	Amyloid-beta precursor protein, Aβ aggregates (APP, Homo sapiens, UniProt P05067)	binding, thioflavin T competition			570 nM
O=C(OC(C(F)(F)F)C(F)(F)F)N1CC(OC(c2ccccc2)c2ccccc2)C1	Monoacylglycerol lipase ABHD6 (ABHD6, Homo sapiens, UniProt Q9BV23)	inhibitor, fluorescence			32.4 ± 2.9 nM
O=C(Nc1ccc(-c2nc3ccccc3[nH]2)cc1)C1CCC1	Moesin with CD44	MSN-CD44 interaction, inhibitor, TR-FRET		with: CD44	> 100000 nM
O=C(NO)c1cccc(F)c1F	Protein deacetylase HDAC6 (HDAC6, Homo sapiens, UniProt Q9UBN7)	enzyme activity, inhibitor, electrophoretic mobility shift		with: FAM-RHKK(Ac)-NH2 1 µM	747 nM
O=C(Nc1ccc(-c2nc3ccccc3s2)cc1)c1ccccc1[N+](=O)[O-]	Moesin with CD44	MSN-CD44 interaction, inhibitor, TR-FRET		with: CD44	> 100000 nM
NS(=O)(=O)c1ccccc1Nc1nc(-c2ccc(Cl)cc2)c2ccccc2n1	Bromodomain-containing protein 4, BD2 (BRD4, Homo sapiens, UniProt O60885)	binding, HTRF			1850 ± 268 nM
COc1ccc(-c2nc(S(C)(=O)=O)nn2-c2ccc(OC)cc2)cc1	Prostaglandin G/H synthase 2 (Macaca mulatta, UniProt F7BWZ9)	PGE2 production, inhibitor, enzyme immunoassay	monkey whole blood		> 1000 nM
Fc1ccc2[nH]cc(/C=C/c3ccncc3)c2c1	Indoleamine 2,3-dioxygenase 1 (IDO1, Homo sapiens, UniProt P14902)	enzyme activity, inhibitor			16500 nM
Nc1nccc(-c2ccc(C3(c4ccc(Cl)cc4)CCNCC3)cc2)n1	Serine/threonine-protein kinase LATS1 (LATS1, Homo sapiens, UniProt O95835)	kinase activity, inhibitor, radiometric HotSpot		with: ATP 10 µM	43 nM
COc1cc(Nc2ncnc(-c3cccnc3Nc3cc(NC(=O)c4cccc(C(F)(F)F)c4)ccc3C)n2)cc(OC)c1OC	Tyrosine-protein kinase HCK (HCK, Homo sapiens, UniProt P08631)	enzyme activity			10 ± 3 nM
CCOc1ccc(S(=O)(=O)NC(=O)Cc2ccc(SC)cc2)cc1Br	Cyclic GMP-AMP synthase (CGAS, Homo sapiens, UniProt Q8N884)	enzyme activity, inhibitor, Kinase-Glo ATP depletion		25 °C, 100 nM enzyme	5590 nM
CCOc1ccccc1Nc1nnc(SCC(=O)Nc2cc(F)ccc2F)s1	CD28, with CD86 (Homo sapiens, UniProt P10747)	protein interaction, NanoBiT complementation	CHO-K1	2 h	38700 nM
O=C1NC(=S)NC(=O)C1=Cc1cn(Cc2ccc3ccccc3c2)c2ncc(Cl)cc12	DNA polymerase eta (POLH, Homo sapiens, UniProt Q9Y253)	DNA polymerase activity, inhibitor, fluorescence		with: dTTP 100 µM	12000 nM
COc1cccc(C(=O)Nc2ccc(-c3nc4ccccc4s3)cc2)c1	Tyrosine-protein kinase SYK, with FCER1G (SYK, Homo sapiens, UniProt P43405)	protein binding, inhibitor, TR-FRET			> 100000 nM
Cn1c(=O)c(-c2cc(Br)ccc2N)nc2ccccc21	Protein diaphanous homolog 1, FH2 domain (Diaph1, Mus musculus, UniProt O08808)	actin assembly, inhibitor, pyrene-actin polymerization			> 50000 nM
COc1ccc2nc3ccc(OC)cc3c(SCCCN(C)C)c2c1	Dual specificity tyrosine-phosphorylation-regulated kinase 2 (DYRK2, Homo sapiens, UniProt Q92630)	inhibitor		with: Woodtide peptide	230 nM
COc1cc([C@@H]2c3cc4c(cc3[C@H](CC(C)C)[C@H]3COC(=O)[C@H]23)OCO4)cc(OC)c1OC	Tubulin alpha/beta heterodimer (Leishmania infantum, UniProt A0A381MCS3+A4HTR0)	tubulin polymerization, inhibitor		37 °C, with: tubulin 1.2 mg/mL	1140 nM and 1100 nM
Cc1ccc(CCN2CCN(c3cc(N4CCCC4)nc(N4CCCC4)n3)CC2)cc1	Caspase-1 (CASP1, Homo sapiens, UniProt P29466)	enzyme activity, inhibitor		30 min preincubation, with: Ac-WEHD-AMC 10 µM	87 ± 9 nM
N#Cc1cnc(Nc2nc3ccccc3o2)nc1-c1cccc2ccccc12	Metabotropic glutamate receptor 5 (Grm5, Rattus norvegicus, UniProt P31424)	calcium mobilization, negative allosteric modulator		with: glutamate EC80	> 10000 nM
CC(C)NC(=O)CSc1nc2ccc(NC(=O)CSc3ccc(C(C)C)cc3)cc2s1	ESR1	reporter gene, antagonist	HEC-1 transfected ERα luciferase reporter		> 50000 nM

SMILES	target	test	test system	setting	IC50
CC(=NNC(=N)N)c1nnn(-c2ccc(C#CC3(O)CCCCC3)cc2)c1C	DNA gyrase subunit B (gyrB, Escherichia coli, UniProt P0AES6)	DNA supercoiling, inhibitor		free compound	29.5 ± 4.1 µg/mL
CC(F)(F)c1nc2nc(CO)cc(Nc3ccc(C(F)(F)F)nc3)n2n1	Dihydroorotate dehydrogenase (quinone), mitochondrial (PFF0160c, Plasmodium falciparum, UniProt Q08210)	enzyme activity, inhibitor, DCIP reduction			88 nM
CN1CCN(Cc2ccc(NC(=O)c3cncc(C#Cc4c(N)ncc5ccc(F)cc45)c3)cc2C(F)(F)F)CC1	Kinesin-1 heavy chain/ Tyrosine-protein kinase receptor RET (RET/KIF5B, Homo sapiens, UniProt P07949+P33176, G810R)	cell viability, inhibitor, CellTiter-Glo	Ba/F3 KIF5B-RET G810R		46.5 ± 1.89 nM
Clc1ccc(C2(c3ccc(-c4ccncc4)cc3)CCNCC2)cc1	RAC-alpha serine/threonine-protein kinase (AKT1, Homo sapiens, UniProt P31749)	kinase activity, inhibitor, radiometric HotSpot		with: ATP 10 µM	38 nM
O=C(Nc1ccc(Cl)cc1)C(NS(=O)(=O)c1cccc(C(F)(F)F)c1)c1ccccc1 (centres unmarked)	Uracil nucleotide/cysteinyl leukotriene receptor, long isoform (GPR17, Homo sapiens, UniProt Q13304)	calcium mobilization, antagonist	1321-N1		18200 ± 2430 nM
COc1cc(Nc2ccnc3cc(Cl)ccc23)cc(OC)c1OC	Serine/threonine-protein kinase N3 (PKN3, Homo sapiens, UniProt Q6P5Z2)	target engagement, NanoBRET	HEK293		> 10000 nM
O=C(O)c1cc(C(=O)N2CCC[C@H]2C(=O)O)cc([C@H]2CCN[C@@H]2C(=O)O)c1	Glutamate receptor ionotropic, NMDA 2D, with GluN1 (Rattus norvegicus, UniProt Q62645)	ion current, antagonist, two-electrode voltage clamp	Xenopus oocytes	GluN1/GluN2D, with: glycine 100 µM and glutamate 1 µM	34800 ± 12200 nM
CN1CC[C@H](c2c(O)cc(O)c3c(=O)cc(-c4ccccc4F)oc23)[C@H](O)C1	Glycogen synthase kinase-3 alpha (GSK3A, Homo sapiens, UniProt P49840)			ATP at Km	> 1000 nM
COc1ccc2[nH]c3c(C)c4cc[n+]([O-])cc4c(C)c3c2c1	Toll-like receptor 3 (Homo sapiens, UniProt O15455)	reporter gene, SEAP reporter	HEK-Blue hTLR3	with: poly(I:C)	1290 ± 680 nM
Cc1cc(C(F)(F)F)c(C#N)c(SCC(=O)Nc2ccccc2)n1	Trace amine-associated receptor 1 (TAAR1, Homo sapiens, UniProt Q96RJ0)				> 10000 nM
O=C(O)CC[C@H](NC(=O)c1cc(C(=O)O)cc([C@H]2CCN[C@@H]2C(=O)O)c1)C(=O)O	AMPA receptor (rat)	binding, radioligand binding	rat cortical synaptosomes	with: [3H]AMPA	10000 to 50000 nM
CCc1ccccc1SCC(=O)Nc1ccc2nc(SCC(=O)NC(C)(C)C)sc2c1	ESR1	reporter gene, antagonist	HEC-1 transfected ERα luciferase reporter		20000 to 50000 nM
C/C=C/c1cc(-c2nn(-c3nc(C(=O)O)cs3)c(CC3CC3)c2Cc2ccc(S(N)(=O)=O)c(F)c2)ccc1F	L-lactate dehydrogenase A chain (LDHA, Homo sapiens, UniProt P00338)	enzyme activity, inhibitor			8 nM
Nc1nc2c(ncn2COCCNC(=O)CCCCNC(=O)c2cc3cc(Br)ccc3c(Br)c2O)c(=O)[nH]1	Deoxynucleoside triphosphate triphosphohydrolase SAMHD1 (SAMHD1, Homo sapiens, UniProt Q9Y3Z3)	dNTPase activity, inhibitor, malachite green		with: dATP and GTP	16000 ± 7000 nM
O=C(O)CCc1nc2sc3cc(-c4ccc(Cl)cc4)ccc3c2c(=O)[nH]1	Fibroblast growth factor receptor 1 (FGFR1, Homo sapiens, UniProt P11362)	kinase activity, inhibitor, AlphaScreen		with: biotinylated peptide substrate	18000 nM
N#Cc1ccc2[nH]cc(/C=C/c3ccc(CO)cc3)c2c1	APP amyloid-beta peptide	Aβ42 oligomerisation, ELISA			> 20000 nM
N#Cc1c2c(c(NC3CCCC3)n3c1nc1ccccc13)CCC2	ERO1-like protein alpha (Homo sapiens, UniProt Q96HE7)	enzyme activity, inhibitor, fluorescence			29700 nM
N#Cc1ccc2[nH]cc(/C=C/c3cccc(O)c3)c2c1	APP amyloid-beta peptide	Aβ42 oligomerisation, ELISA			> 20000 nM
CN(Cc1ccncc1)c1ccc2c(c1)c(=O)c(C(N)=O)cn2-c1ccc(F)cc1	Metabotropic glutamate receptor 2 (Grm2, Rattus norvegicus, UniProt P31421)	calcium mobilization, negative allosteric modulator			201 nM
CCN1c2ccccc2C(=O)N(C)c2cnc(Nc3ccc(C(=O)N4CCC(N5CCN(C)CC5)CC4)cc3OC)nc21	Leucine-rich repeat serine/threonine-protein kinase 2 (LRRK2, Homo sapiens, UniProt Q5S007)	kinase activity, Adapta			4.4 ± 0.5 nM
S=c1[nH]c(-c2ccccc2)cs1	72 kDa type IV collagenase (MMP2, Homo sapiens, UniProt P08253)	inhibitor			> 200000 nM
CC(=O)Nc1ccc2cnn(-c3cc(NC4CC4)n4ncc(C#N)c4n3)c2c1	Casein kinase II subunit alpha' (CSNK2A2, Homo sapiens, UniProt P19784)	target engagement, NanoBRET	HEK293		20 nM

Repeated from above:
SMILES	target	test	test system	setting	IC50
O=C(OC(C(F)(F)F)C(F)(F)F)N1CC(OC(c2ccccc2)c2ccccc2)C1	Monoacylglycerol lipase ABHD6 (ABHD6, Homo sapiens, UniProt Q9BV23)	inhibitor, fluorescence			32.4 ± 2.9 nM
O=C(Nc1ccc(-c2nc3ccccc3[nH]2)cc1)C1CCC1	Moesin with CD44	MSN-CD44 interaction, inhibitor, TR-FRET		with: CD44	> 100000 nM
O=C(NO)c1cccc(F)c1F	Protein deacetylase HDAC6 (HDAC6, Homo sapiens, UniProt Q9UBN7)	enzyme activity, inhibitor, electrophoretic mobility shift		with: FAM-RHKK(Ac)-NH2 1 µM	747 nM
O=C(Nc1ccc(-c2nc3ccccc3s2)cc1)c1ccccc1[N+](=O)[O-]	Moesin with CD44	MSN-CD44 interaction, inhibitor, TR-FRET		with: CD44	> 100000 nM
